# Measured values pooled from the literature.
# Lines come from different studies, so protocols differ. ± marks the error that the study gave.
# Cell line: HCT-116
SMILES,test,setting,scale,quantity,value
COc1c(C)cc2c(c1OC)OCO2,"cell growth or viability, MTT",72 h,,GI50,> 250 µM
"C=C(C)CC(OC)C(O)C(=O)NC(OC)C1CC(=C)C(C)(C)C(CC(O)C(C)C2Cc3c(C)c(O)cc(O)c3C(=O)O2)O1 (single isomer, unassigned; (+))",cell growth or viability,,,IC50,0.001 µM
O=C(CN1C(=O)S/C(=C\c2ccccc2)C1=O)Nc1ccc(C(=O)Nc2ccc(F)cc2)cc1,MTT,,reference: IC50 Vero over IC50 HCT-116,selectivity index,22.7
C=C(CO)[C@H]1Cc2c(ccc3c2O[C@@H]2COc4cc(OC)c(OC)cc4[C@]2(O)C3=O)O1,"cell growth or viability, MTT",72 h,,IC50,16.6 µM
COc1cc(C)cc2c1OCO2,cell growth or viability,72 h,,GI50,> 250 µM
COC1CC(=O)N(C)C=CCCCC(=O)N(C)C(C(C)C)C(=O)N(C)C(CC(C)C)C(=O)OC(C(C)C)CC(C)C1 (stereo not drawn),"RNA sequencing, item: autophagy","20 µM, 12 h",direction not given,pathway activation z-score,2
CC[C@H](C)[C@H](NC(=O)[C@H](Cc1ccc(O)cc1)NC(=O)[C@@H]1CCCN1C(=O)[C@H](C)NC(=O)[C@H](CC(C)C)NC(=O)[C@H](C)NC(=O)CCCCCNC(=O)[C@H](Cc1ccc(O)cc1)NC(=O)[C@H](Cc1c[nH]cn1)NC(=O)[C@H](CCSC)NC(=O)[C@H](CCSC)NC(=O)[C@H](CC(=O)O)NC(=O)[C@@H]1CCCN1C(=O)[C@@H]1CCCN1C(=O)[C@H](Cc1c[nH]c2ccccc12)NC(=O)[C@H](CO)NC(=O)[C@@H](NC(=O)[C@H](Cc1ccc(O)cc1)NC(=O)[C@H](Cc1ccc(O)cc1)NC(C)=O)C(C)C)C(=O)N1CCC[C@H]1C(=O)N[C@@H](Cc1ccc(O)cc1)C(=O)NCC(=O)N[C@@H](CCCNC(=N)N)C(=O)N[C@@H](CCCCN)C(=O)N[C@@H](CCCCN)C(=O)N[C@@H](CCCNC(=N)N)C(=O)N[C@@H](CCCNC(=N)N)C(=O)N[C@@H](CCC(N)=O)C(=O)N[C@@H](CCCNC(=N)N)C(=O)N[C@@H](CCCNC(=N)N)C(=O)N[C@@H](CCCNC(=N)N)C(N)=O,"cell growth or viability, CCK-8",,,IC50,14.9 µM
[Ga+3].[O-]c1ccc(Br)c2cccnc12.[O-]c1ccc(Br)c2cccnc12.[O-]c1ccc(Br)c2cccnc12,"cell growth or viability, MTT",72 h,,IC50,1.2 µM
C[P+](c1ccccc1)(c1ccccc1)c1ccccc1,"cell growth or viability, MTT",72 h,,GI50,2.32 µM
OC[C@H]1[C@@H](O)[C@@H](O)CN1Cc1ccc(I)cc1,"cell growth or viability, MTS",72 h,,IC50,> 200 µM
CC(C)C[C@H](NC(=O)[C@H](CC(C)C)NC(=O)[C@H](CC(=O)O)NC(=O)[C@H](CCCCN)NC(=O)[C@H](Cc1ccccc1)NC(=O)CN)C(=O)N[C@@H](CCCCN)C(=O)N[C@H]1CSCc2cccc(c2)CSC[C@@H](C(=O)N[C@@H](CC(C)C)C(=O)N[C@H](C(=O)N[C@@H](CCCCN)C(=O)N[C@H](C(=O)N[C@H](C(=O)N[C@@H](CC(C)C)C(=O)N[C@@H](Cc2ccccc2)C(N)=O)C(C)C)[C@@H](C)O)C(C)C)NC(=O)[C@H](CCCCN)NC(=O)[C@H](C)NC(=O)[C@H](C)NC1=O,"cell growth or viability, CCK-8",,,IC50,5.69 µM
N=C(N)NCCC[C@H](NC(=O)[C@H](Cc1c(F)c(F)c(F)c(F)c1F)NC(=O)[C@H](CCCNC(=N)N)NC(=O)[C@@H](CCCNC(=N)N)NC(=O)CCCCCNC(=O)CCCc1ccc(N(CCCl)CCCl)cc1)C(=O)N[C@@H]1CSCc2ccccc2CSC[C@@H](C(=O)N[C@H](CCCNC(=N)N)C(=O)N[C@@H](CC2CCCCC2)C(=O)N[C@@H](CCCNC(=N)N)C(=O)N2Cc3ccccc3C2C(N)=O)NC(=O)[C@H](Cc2cccc3ccccc23)NC(=O)[C@H](Cc2ccc(O)cc2)NC1=O (stereo partly drawn),,,,EC50,7.5 ± 1.1 µM
CCCCCCCCC[P+](c1ccccc1)(c1ccccc1)c1ccccc1,cell growth or viability,72 h,,GI50,0.092 µM
Cc1cc(O)cc(-c2nc(Nc3cc(C(F)(F)F)cc(C(F)(F)F)c3)ncc2-c2ccnc(Cl)c2)c1,,"10 µM, 72 h",reference: untreated cells,viability decrease,> 50%
CCCc1cc2c(c(OC)c1OC)OCO2,cell growth or viability,72 h,,GI50,> 250 µM
COc1ccccc1/C=C1\SC(=O)N(CC(=O)Nc2ccc(C(=O)Nc3ccc([N+](=O)[O-])cc3)cc2)C1=O,MTT,,reference: IC50 Vero over IC50 HCT-116,selectivity index,19.5
C=C(C)C[C@H](OC)[C@H](O)C(=O)NC[C@@H]1CCC[C@@H](C[C@H](O)[C@@H](C)[C@H]2Cc3c(C)c(O)cc(O)c3C(=O)O2)O1,cell growth or viability,,,IC50,0.16 µM
CC(C)=CCC/C(C)=C/C[P+](c1ccccc1)(c1ccccc1)c1ccccc1,"cell growth or viability, MTT",72 h,,GI50,0.079 µM
CCCCCCCC(=O)SCCC=CC1CC(=O)NCc2nc(cs2)C2=NC(C)(CS2)C(=O)NC(C(C)C)C(=O)O1 (stereo not drawn),cell growth or viability,,,GI50,> 10 µM
CC(C)C[C@H](NC(=O)[C@H](C)NC(=O)[C@H](CCCCN)NC(=O)[C@H](C)NC(=O)[C@H](C)NC(=O)[C@@H]1CSCc2ccccc2CSC[C@H](NC(=O)[C@H](CCCCN)NC(=O)[C@H](Cc2ccccc2)NC(=O)CN)C(=O)N[C@@H](CC(C)C)C(=O)N[C@@H](CC(C)C)C(=O)N[C@@H](CCCCN)C(=O)N1)C(=O)N[C@H](C(=O)N[C@@H](CCCCN)C(=O)N[C@H](C(=O)N[C@H](C(=O)N[C@@H](CC(C)C)C(=O)N[C@@H](Cc1ccccc1)C(N)=O)C(C)C)[C@@H](C)O)C(C)C,"cell growth or viability, CCK-8",,,IC50,15.7 µM
C=CCc1cc(OC)c(OC)c(OC)c1OC,cell growth or viability,72 h,,GI50,> 250 µM
CC(=O)O[C@@]12CO[C@@H]1C[C@H](O)[C@@]1(C)C(=O)[C@H](O)C3=C(C)[C@@H](OC(=O)[C@H](OC(=O)CNC(=O)CCSSCCC(=O)NCCCCCC(=O)N[C@H](CCCNC(=N)N)C(=O)N[C@@H](CCCNC(=N)N)C(=O)N[C@@H](Cc4c(F)c(F)c(F)c(F)c4F)C(=O)N[C@@H](CCCNC(=N)N)C(=O)N[C@@H]4CSCCS(=O)(=O)CCSC[C@@H](C(=O)N[C@H](CCCNC(=N)N)C(=O)N[C@@H](CC5CCCCC5)C(=O)N[C@@H](CCCNC(=N)N)C(=O)N5Cc6ccccc6C5C(N)=O)NC(=O)[C@H](Cc5cccc6ccccc56)NC(=O)[C@H](Cc5ccc(O)cc5)NC4=O)[C@@H](NC(=O)OC(C)(C)C)c4ccccc4)C[C@@](O)([C@@H](OC(=O)c4ccccc4)[C@H]21)C3(C)C (stereo partly drawn),,,,EC50,8.4 ± 1.5 µM
CC(C)C[C@H](NC(=O)[C@H](CC(C)C)NC(=O)[C@H](CC(=O)O)NC(=O)[C@H](CCCCN)NC(=O)[C@H](Cc1ccccc1)NC(=O)CN)C(=O)N[C@@H](CCCCN)C(=O)N[C@H]1CSCc2ccccc2CSC[C@@H](C(=O)N[C@@H](CC(C)C)C(=O)N[C@H](C(=O)N[C@@H](CCCCN)C(=O)N[C@H](C(=O)N[C@H](C(=O)N[C@@H](CC(C)C)C(=O)N[C@@H](Cc2ccccc2)C(N)=O)C(C)C)[C@@H](C)O)C(C)C)NC(=O)[C@H](CCCCN)NC(=O)[C@H](C)NC(=O)[C@H](C)NC1=O,"cell growth or viability, CCK-8",,,IC50,4.78 µM
COc1cc(C)c(OC)c(OC)c1OC,cell growth or viability,72 h,,GI50,> 250 µM
